{"data": "Experimental data pooled from the literature", "note": "Numbered parts are unrelated; each lists some results of a single study. Substitutions count along the parent as printed.", "UniProt P53778, sequence (whole entry, looked up)": "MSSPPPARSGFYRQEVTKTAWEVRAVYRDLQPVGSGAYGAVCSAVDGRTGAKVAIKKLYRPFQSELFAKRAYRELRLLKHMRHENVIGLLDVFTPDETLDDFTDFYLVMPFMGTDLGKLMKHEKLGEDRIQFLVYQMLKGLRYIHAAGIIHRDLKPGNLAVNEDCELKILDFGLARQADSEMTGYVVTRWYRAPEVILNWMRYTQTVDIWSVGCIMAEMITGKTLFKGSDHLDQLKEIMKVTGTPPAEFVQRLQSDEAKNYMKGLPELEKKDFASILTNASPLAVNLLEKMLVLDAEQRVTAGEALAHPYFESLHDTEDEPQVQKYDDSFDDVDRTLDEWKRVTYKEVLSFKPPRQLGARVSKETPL", "UniProt P06239, sequence (whole entry, looked up)": "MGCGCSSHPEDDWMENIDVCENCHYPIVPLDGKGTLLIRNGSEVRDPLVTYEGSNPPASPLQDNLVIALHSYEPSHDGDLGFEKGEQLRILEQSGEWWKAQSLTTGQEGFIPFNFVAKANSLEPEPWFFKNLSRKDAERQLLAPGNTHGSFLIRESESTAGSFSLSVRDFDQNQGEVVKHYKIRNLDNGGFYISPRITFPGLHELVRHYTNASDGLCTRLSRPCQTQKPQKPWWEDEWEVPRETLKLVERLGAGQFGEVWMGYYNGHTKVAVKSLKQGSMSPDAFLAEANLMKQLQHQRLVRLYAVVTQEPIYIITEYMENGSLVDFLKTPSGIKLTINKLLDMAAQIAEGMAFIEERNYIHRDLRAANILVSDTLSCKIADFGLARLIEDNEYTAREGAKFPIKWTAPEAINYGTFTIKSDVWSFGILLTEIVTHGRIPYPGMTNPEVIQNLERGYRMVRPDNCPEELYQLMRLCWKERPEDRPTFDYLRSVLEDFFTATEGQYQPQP", "UniProt O43283, sequence (whole entry, looked up)": "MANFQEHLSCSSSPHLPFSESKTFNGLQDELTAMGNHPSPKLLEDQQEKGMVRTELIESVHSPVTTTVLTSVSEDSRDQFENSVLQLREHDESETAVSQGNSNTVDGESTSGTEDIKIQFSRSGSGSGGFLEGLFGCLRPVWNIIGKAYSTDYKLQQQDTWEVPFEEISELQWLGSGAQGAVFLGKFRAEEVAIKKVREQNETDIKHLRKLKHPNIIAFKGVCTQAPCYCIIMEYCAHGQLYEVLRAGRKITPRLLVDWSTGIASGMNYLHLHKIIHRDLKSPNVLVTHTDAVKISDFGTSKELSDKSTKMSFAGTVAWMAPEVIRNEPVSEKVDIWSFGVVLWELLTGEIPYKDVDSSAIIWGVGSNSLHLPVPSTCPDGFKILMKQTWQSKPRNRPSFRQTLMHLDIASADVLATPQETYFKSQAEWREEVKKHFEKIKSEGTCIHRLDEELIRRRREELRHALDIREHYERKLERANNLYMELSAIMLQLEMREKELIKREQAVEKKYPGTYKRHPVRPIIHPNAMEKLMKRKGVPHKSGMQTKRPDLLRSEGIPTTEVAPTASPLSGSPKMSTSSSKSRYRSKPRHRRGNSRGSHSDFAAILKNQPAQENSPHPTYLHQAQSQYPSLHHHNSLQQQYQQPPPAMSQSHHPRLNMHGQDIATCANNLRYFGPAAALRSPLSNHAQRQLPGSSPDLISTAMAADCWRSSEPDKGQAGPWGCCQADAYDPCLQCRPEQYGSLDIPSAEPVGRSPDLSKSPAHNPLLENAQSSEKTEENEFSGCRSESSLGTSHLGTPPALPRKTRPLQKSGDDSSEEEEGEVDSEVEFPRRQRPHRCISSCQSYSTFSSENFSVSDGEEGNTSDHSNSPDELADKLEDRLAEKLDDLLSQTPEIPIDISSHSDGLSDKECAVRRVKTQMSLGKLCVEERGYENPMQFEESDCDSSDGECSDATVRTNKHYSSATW", "UniProt P35626, sequence (whole entry, looked up)": "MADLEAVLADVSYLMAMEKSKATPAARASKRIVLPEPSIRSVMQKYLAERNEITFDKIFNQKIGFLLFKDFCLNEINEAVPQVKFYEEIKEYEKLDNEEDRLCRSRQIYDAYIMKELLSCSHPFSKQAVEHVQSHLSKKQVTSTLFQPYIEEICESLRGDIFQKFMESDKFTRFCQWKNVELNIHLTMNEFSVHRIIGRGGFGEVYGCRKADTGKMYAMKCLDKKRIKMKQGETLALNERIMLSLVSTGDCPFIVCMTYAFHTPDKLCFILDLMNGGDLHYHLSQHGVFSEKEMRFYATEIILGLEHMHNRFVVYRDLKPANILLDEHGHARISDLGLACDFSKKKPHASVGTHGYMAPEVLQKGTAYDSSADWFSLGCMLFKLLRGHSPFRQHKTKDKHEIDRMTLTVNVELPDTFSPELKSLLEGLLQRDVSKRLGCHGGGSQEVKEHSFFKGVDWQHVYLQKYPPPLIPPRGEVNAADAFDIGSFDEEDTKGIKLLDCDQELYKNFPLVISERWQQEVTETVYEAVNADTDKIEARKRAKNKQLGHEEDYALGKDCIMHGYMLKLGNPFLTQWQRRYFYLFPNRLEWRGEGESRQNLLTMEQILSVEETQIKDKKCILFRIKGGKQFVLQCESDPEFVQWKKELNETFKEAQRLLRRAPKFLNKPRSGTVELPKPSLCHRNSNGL"}
{"data": "Study 1", "target": "MAFG, bZIP domain (human)", "method": "DHFR protein complementation", "sample": "yeast", "notes": "single substitutions, most at no-binding floor", "reference": "wild-type JUN-FOS pair", "reading": "higher = stronger binding", "starting sequence": "JUN, bZIP domain (human); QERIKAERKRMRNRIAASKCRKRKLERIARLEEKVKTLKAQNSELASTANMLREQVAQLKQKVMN; partner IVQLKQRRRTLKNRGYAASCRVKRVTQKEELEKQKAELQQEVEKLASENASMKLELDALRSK"}
{"Change": "E33Q", "binding fitness": "-1.24 natural log"}
{"Change": "L52R", "binding fitness": "-1.51 natural log"}
{"Change": "R53N", "binding fitness": "-1.25 natural log"}
{"Change": "Q55P", "binding fitness": "-1.53 natural log"}
{"Change": "S43V", "binding fitness": "-1.26 natural log"}
{"Change": "E54G", "binding fitness": "-1.51 natural log"}
{"Change": "S43T", "binding fitness": "-1.35 natural log"}
{"Change": "R53V", "binding fitness": "-1.48 natural log"}
{"data": "Study 2", "Compound": "O=C(NS(=O)(=O)c1ccc(NCC2CCOCC2)c([N+](=O)[O-])c1)c1ccc(N2CCN(Cc3ccc(C(F)(F)F)cc3-c3ccc(Cl)cc3)CC2)cc1Oc1cnc2[nH]ccc2c1", "observed": "cell-free assay", "method": "competition with immobilised ligand", "tested at": "1 µM"}
{"target": "Tyrosine-protein kinase Lck (LCK, Homo sapiens, UniProt P06239)", "remaining binding [%]": 100}
{"target": "Mitogen-activated protein kinase 12 (MAPK12, Homo sapiens, UniProt P53778)", "remaining binding [%]": 50}
{"target": "Mitogen-activated protein kinase kinase kinase 13 (MAP3K13, Homo sapiens, UniProt O43283)", "remaining binding [%]": 91}
{"target": "G protein-coupled receptor kinase 3 (GRK3, Homo sapiens, UniProt P35626)", "remaining binding [%]": 78}
{"data": "Study 3", "target": "Runt-related transcription factor 3, Runt domain (RUNX3, Homo sapiens, UniProt Q13761, residues 53-186)", "method": "protein-binding microarray", "form": "hairpin DNA", "sample": "in vitro", "tested at": "not given", "notes": "whole hairpin DNA, median over replicate spots", "reference": "not given", "reading": "higher = stronger binding", "shared flanks, not repeated": "GAGGCCT … AGGCCTCACACTC", "UniProt Q13761, sequence (53-186, looked up)": "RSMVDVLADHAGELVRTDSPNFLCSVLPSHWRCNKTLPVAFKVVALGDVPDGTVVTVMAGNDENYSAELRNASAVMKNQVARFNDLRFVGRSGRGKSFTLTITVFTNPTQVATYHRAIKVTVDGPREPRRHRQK"}
{"Strand": "GTCGCGGTTGGCCTCCTGGCCAACCGCGAC (5mC at 10)", "median fluorescence [a.u.]": 7430}
{"Strand": "GCTGCGGTTGGCCTCCTGGCCAACCGCAGC (5mC at 9)", "median fluorescence [a.u.]": 8100}
{"Strand": "GCGGCGGTTGGCCTCCTGGCCAACCGCCGC (5mC at 9 35)", "median fluorescence [a.u.]": 6510}
{"Strand": "GTTGTGCTTGGCCTCCTGGCCAAGCACAAC", "median fluorescence [a.u.]": 4760}
{"Strand": "CGTGCGGTTGGCCTCCTGGCCAACCGCACG (5mC at 8)", "median fluorescence [a.u.]": 6210}
{"Strand": "GTCGCGGTTGGCCTCCTGGCCAACCGCGAC", "median fluorescence [a.u.]": 6190}
{"Strand": "GTTTCGGTTGGCCTCCTGGCCAACCGAAAC", "median fluorescence [a.u.]": 4370}
{"Strand": "GCTGCGGTTGGCCTCCTGGCCAACCGCAGC", "median fluorescence [a.u.]": 7650}
{"data": "Study 4", "species": "human", "sample": "microsomes or S9", "tested at": "2 µM", "time": "0.5 h"}
{"Structure (SMILES)": "COc1cc2c(Br)c(O)c(Br)cc2cc1Cc1ccccc1", "remaining compound [%]": 53.9}
{"Structure (SMILES)": "CC(=O)N1c2ccc(S(=O)(=O)Nc3ccc(C(=O)c4c(C)nc5sccn45)cc3)cc2CC1C (stereo not drawn)", "remaining compound [%]": 38.5}
{"Structure (SMILES)": "COc1cc(=O)n(-c2ccccc2)cc1C(=O)N1CCC(N2CCc3ccccc3C2)C1 (stereo not drawn)", "remaining compound [%]": 67.1}
{"Structure (SMILES)": "N#Cc1ccccc1-c1nc2cc(Cl)ccc2c2ccnn12", "remaining compound [%]": 75.9}
{"note": "Repeated from above (study 4):"}
{"Structure (SMILES)": "COc1cc(=O)n(-c2ccccc2)cc1C(=O)N1CCC(N2CCc3ccccc3C2)C1 (stereo not drawn)", "remaining compound [%]": 67.1}
{"Structure (SMILES)": "N#Cc1ccccc1-c1nc2cc(Cl)ccc2c2ccnn12", "remaining compound [%]": 75.9}
